Measurements of several laboratories.
Protocols differ between the studies behind these lines. Numbers after ± are the reported error.
B1: UNC5A 26-303 (Homo sapiens, UniProt Q6ZN44); chain QQSATVANPVPGANPDLLPHFLVEPEDVYIVKNKPVLLVCKAVPATQIFFKCNGEWVRQVDHVIERSTDGSSGLPTMEVRINVSRQQVEKVFGLEEYWCQCVAWSSSGTTKSQKAYIRIAYLRKNFEQEPLAKEVSLEQGIVLPCRPPEGIPPAEVEWLRNEDLVDPSLDPNVYITREHSLVVRQARLADTANYTCVAKNIVARRRSASAAVIVYVDGSWSPWSKWSACGLDCTHWRSRECSDPAPRNGGEECQGTDLDTRNCTSDLCVHTASGPEDV
B2: Pigr 19-135 (Mus musculus, UniProt O70570); chain KSPIFGPQEVSSIEGDSVSITCYYPDTSVNRHTRKYWCRQGASGMCTTLISSNGYLSKEYSGRANLINFPENNTFVINIEQLTQDDTGSYKCGLGTSNRGLSFDVSLEVSQVPELPS
B3: C1S 438-688 S632A (Homo sapiens, UniProt P09871); chain IIGGSDADIKNFPWQVFFDNPWAGGALINEYWVLTAAHVVEGNREPTMYVGSTSVQTSRLAKSKMLTPEHVFIHPGWKLLEVPEGRTNFDNDIALVRLKDPVKMGPTVSPICLPGTSSDYNLMDGDLGLISGWGRTEKRDRAVRLKAARLPVAPLRKCKEVKVEKPTADAEAYVFTPNMICAGGEKGMDSCKGDAGGAFAVQDPNDKTKFYAAGLVSWGPQCGTYGLYTRVKNYVDWIMKTMQENSTPRED
B4: BRAF kinase 448-723 K723G/P722S/S720E/L716E/S713E/Q709R/L706S/A688R/Y673S/N661D/K630S/V600E/L588N/Q562R (Homo sapiens, UniProt P15056); sequence looked up; chain DDWEIPDGQITVGQRIGSGSFGTVYKGKWHGDVAVKMLNVTAPTPQQLQAFKNEVGVLRKTRHVNILLFMGYSTKPQLAIVTQWCEGSSLYHHLHASETKFEMKKLIDIARQTARGMDYLHAKSIIHRDLKSNNIFLHEDNTVKIGDFGLATEKSRWSGSHQFEQLSGSILWMAPEVIRMQDSNPYSFQSDVYAFGIVLYELMTGQLPYSNINDRDQIIFMVGRGSLSPDLSKVRSNCPKRMKRLMAECLKKKRDERPSFPRILAEIEELARELSG
B5: IGSF10 2234-2623 (Homo sapiens, UniProt Q6WRI0); sequence looked up; chain PPLINGLYTNRTVIKATAVRHSKKHFDCRAEGTPSPEVMWIMPDNIFLTAPYYGSRITVHKNGTLEIRNVRLSDSADFICVARNEGGESVLVVQLEVLEMLRRPTFRNPFNEKIVAQLGKSTALNCSVDGNPPPEIIWILPNGTRFSNGPQSYQYLIASNGSFIISKTTREDAGKYRCAARNKVGYIEKLVILEIGQKPVILTYAPGTVKGISGESLSLHCVSDGIPKPNIKWTMPSGYVVDRPQINGKYILHDNGTLVIKEATAYDRGNYICKAQNSVGHTLITVPVMIVAYPPRITNRPPRSIVTRTGAAFQLHCVALGVPKPEITWEMPDHSLLSTASKERTHGSEQLHLQGTLVIQNPQTSDSGIYKCTAKNPLGSDYAATYIQVI
UniProt Q9NZQ7, sequence (whole entry, looked up): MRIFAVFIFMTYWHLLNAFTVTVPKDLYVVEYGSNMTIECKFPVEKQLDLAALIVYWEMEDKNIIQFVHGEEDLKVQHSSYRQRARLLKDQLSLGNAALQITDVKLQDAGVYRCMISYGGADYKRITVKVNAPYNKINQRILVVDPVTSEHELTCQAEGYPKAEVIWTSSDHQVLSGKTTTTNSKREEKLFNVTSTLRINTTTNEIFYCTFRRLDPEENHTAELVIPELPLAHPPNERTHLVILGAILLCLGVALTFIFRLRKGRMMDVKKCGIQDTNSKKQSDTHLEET
UniProt P26039, sequence (whole entry, looked up): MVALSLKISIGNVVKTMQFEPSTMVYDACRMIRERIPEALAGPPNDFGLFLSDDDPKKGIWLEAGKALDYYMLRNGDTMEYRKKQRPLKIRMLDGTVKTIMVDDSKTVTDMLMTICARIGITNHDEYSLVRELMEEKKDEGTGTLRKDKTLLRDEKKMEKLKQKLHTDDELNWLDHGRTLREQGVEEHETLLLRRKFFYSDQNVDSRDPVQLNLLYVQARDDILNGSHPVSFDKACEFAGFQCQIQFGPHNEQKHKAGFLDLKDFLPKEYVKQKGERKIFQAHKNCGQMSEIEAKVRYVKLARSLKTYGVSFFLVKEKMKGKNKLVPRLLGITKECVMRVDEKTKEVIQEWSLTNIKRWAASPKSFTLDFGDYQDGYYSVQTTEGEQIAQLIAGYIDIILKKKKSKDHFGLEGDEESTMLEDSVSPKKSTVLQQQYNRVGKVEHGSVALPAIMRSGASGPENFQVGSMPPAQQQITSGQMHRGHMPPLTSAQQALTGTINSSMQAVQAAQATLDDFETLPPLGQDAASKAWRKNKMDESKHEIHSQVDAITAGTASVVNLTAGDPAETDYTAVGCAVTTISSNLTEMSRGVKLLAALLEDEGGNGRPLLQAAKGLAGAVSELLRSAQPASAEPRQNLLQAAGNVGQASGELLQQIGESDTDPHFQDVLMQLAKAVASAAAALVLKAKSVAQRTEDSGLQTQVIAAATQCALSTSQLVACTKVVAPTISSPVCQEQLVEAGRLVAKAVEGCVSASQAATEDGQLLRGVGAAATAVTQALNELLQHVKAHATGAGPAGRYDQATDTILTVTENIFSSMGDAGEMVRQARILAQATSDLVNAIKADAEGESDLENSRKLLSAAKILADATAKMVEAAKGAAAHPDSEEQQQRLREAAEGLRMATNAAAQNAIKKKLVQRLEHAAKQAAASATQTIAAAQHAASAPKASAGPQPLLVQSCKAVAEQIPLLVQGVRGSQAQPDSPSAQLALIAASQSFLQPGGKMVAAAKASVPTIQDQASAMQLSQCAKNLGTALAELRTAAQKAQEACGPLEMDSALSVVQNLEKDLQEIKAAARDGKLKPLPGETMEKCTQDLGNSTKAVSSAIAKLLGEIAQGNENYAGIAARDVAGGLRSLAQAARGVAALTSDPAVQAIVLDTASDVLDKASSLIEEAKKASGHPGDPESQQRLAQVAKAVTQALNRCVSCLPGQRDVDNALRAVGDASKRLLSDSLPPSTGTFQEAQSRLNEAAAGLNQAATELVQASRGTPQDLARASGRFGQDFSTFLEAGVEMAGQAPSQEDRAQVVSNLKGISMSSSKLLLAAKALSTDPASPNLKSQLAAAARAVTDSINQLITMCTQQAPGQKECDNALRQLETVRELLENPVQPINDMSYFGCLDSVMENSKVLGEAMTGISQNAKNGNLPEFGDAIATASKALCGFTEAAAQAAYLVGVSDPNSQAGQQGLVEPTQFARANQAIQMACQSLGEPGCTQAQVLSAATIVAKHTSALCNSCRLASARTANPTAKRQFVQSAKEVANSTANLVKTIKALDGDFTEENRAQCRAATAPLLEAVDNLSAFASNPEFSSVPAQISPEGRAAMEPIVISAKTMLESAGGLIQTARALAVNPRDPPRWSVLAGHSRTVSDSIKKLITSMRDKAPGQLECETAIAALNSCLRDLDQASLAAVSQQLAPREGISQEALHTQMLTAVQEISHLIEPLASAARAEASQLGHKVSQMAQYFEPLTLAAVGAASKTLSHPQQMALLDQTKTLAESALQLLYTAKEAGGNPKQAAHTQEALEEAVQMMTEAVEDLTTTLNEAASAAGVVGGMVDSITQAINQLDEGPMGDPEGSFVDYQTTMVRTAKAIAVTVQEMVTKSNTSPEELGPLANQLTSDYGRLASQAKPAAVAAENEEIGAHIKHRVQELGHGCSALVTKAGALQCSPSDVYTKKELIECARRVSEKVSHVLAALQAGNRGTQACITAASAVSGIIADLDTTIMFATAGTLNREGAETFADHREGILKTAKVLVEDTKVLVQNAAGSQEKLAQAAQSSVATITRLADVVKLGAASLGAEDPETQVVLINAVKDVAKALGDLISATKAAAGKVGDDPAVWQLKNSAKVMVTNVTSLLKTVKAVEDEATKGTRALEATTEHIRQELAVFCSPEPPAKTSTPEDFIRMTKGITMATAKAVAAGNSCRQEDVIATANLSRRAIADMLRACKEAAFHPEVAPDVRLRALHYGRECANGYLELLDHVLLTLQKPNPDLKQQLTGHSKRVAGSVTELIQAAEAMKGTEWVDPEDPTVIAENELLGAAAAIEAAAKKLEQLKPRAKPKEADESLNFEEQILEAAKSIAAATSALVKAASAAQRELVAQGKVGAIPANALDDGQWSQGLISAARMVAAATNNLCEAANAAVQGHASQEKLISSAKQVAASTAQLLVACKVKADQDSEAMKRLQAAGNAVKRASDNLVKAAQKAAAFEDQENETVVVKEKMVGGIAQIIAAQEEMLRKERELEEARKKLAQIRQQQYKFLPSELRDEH
UniProt P07949, sequence (whole entry, looked up): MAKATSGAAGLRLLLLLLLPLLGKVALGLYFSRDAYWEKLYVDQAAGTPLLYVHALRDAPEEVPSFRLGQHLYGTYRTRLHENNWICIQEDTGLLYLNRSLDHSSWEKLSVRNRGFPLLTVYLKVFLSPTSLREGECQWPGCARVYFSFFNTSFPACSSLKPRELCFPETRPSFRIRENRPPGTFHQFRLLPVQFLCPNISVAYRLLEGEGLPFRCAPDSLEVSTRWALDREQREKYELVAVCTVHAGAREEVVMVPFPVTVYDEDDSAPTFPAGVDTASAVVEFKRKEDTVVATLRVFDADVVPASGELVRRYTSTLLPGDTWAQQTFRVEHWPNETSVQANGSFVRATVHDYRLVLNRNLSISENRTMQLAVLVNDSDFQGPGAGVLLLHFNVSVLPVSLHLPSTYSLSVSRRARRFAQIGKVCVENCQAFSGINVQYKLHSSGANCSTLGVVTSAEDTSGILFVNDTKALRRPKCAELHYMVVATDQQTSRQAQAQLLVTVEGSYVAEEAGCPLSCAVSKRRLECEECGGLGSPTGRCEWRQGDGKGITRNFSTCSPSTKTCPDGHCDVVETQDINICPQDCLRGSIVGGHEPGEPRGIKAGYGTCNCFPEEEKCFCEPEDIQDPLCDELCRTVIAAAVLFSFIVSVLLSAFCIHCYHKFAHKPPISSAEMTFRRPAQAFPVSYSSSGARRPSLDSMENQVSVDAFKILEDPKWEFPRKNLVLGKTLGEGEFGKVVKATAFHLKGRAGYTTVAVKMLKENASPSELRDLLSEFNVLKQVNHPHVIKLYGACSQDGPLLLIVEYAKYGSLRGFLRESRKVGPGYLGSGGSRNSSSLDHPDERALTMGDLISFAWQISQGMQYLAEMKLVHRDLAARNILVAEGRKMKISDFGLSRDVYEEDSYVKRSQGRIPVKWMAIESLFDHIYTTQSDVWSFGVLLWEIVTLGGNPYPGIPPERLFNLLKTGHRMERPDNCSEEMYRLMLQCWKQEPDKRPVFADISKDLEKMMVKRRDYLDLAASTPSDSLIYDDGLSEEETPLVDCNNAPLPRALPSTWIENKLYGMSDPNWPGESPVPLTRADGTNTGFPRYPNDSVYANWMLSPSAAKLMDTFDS
UniProt P06241, sequence (whole entry, looked up): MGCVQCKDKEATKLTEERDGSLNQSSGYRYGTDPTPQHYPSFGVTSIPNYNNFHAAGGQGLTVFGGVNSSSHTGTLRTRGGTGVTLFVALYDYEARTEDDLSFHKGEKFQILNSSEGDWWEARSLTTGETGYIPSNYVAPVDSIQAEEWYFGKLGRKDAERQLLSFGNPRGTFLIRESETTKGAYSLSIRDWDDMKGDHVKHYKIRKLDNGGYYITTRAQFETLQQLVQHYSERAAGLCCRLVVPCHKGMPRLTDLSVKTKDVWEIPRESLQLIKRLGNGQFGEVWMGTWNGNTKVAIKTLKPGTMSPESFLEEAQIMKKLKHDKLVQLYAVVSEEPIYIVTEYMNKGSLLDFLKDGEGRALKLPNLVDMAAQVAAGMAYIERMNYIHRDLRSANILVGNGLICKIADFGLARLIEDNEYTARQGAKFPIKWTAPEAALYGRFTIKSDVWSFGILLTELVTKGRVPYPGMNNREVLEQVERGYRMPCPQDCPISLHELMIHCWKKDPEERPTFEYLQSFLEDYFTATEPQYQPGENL
UniProt P05155, sequence (whole entry, unmodified, looked up): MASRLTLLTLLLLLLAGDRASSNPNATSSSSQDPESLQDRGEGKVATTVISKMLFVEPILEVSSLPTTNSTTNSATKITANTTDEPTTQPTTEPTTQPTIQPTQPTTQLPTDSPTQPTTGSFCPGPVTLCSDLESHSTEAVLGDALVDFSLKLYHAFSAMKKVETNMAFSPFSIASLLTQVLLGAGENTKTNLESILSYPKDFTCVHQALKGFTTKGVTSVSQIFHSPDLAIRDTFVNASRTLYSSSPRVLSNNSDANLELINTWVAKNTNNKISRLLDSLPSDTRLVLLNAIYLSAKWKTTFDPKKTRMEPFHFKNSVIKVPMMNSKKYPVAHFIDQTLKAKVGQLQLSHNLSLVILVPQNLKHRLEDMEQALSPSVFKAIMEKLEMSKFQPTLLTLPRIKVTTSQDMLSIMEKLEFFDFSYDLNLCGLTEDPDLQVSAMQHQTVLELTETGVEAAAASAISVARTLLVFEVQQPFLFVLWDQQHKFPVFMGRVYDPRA

Substance	partner	test	test system	conditions	Kd [µM]
B1 (UNC5A 26-303)	Flrt2 35-362 (Mus musculus, UniProt Q8BLU0)	SPR	–	–	8
B2 (Pigr 19-135)	IgA Fc/J chain CH2-CH3 domains D137A (Mus musculus)	SPR	–	–	0.81
PRPRPRPRPRPRPRPRPRPRPRPRPRPRPRPRPRPRPRPR ((PR)20 20 repeats; TAMRA label N-terminal)	TNPO1 W460A/W730A (Homo sapiens, UniProt Q92973-2)	fluorescence polarisation	peptide	–	0.0388 ± 0.0051
B3 (C1S 438-688 S632A)	SERPING1 111-500 K390A/Q392A (Homo sapiens, UniProt P05155)	SPR	–	with: Ca2+	9.6
KLLMIIHDRREFAKFEKEKMNAKWDTGNNPIYKSAVTTVVNPKYEGK (ITGB1 752-798 E779N (Homo sapiens, UniProt P05556-1); sequence looked up)	Tln1 309-405 (Mus musculus, UniProt P26039)	NMR titration	–	–	767
B4	MAP2K1 (Homo sapiens, UniProt Q02750)	BLI	–	–	0.0362 ± 0.00131
B5 (IGSF10 2234-2623)	RET 29-635 (Homo sapiens, UniProt P07949)	ITC	–	–	0.25
PKPRPPRPLPVAP (PIK3R1 87-99 (Homo sapiens))	FYN 82-144 (Homo sapiens, UniProt P06241)	ITC	peptide	–	41.3
FGB dimer (Homo sapiens)	CDH2 EC3-EC5 217-551 (Homo sapiens)	SPR	–	Langmuir fit, with: CaCl2	0.0272
CALLLSAPRR (GOT2 (Gallus gallus); fluorescein label)	HSPA9 mature V482F (Homo sapiens, UniProt P38646)	FP	peptide	–	> 150
WHRSYYTWNLAG (TR3-LAG peptide)	CD274 19-238 (Homo sapiens, UniProt Q9NZQ7)	SPR	peptide	–	0.198

Excerpt of the above:
Substance	partner	test	test system	conditions	Kd [µM]
B3 (C1S 438-688 S632A)	SERPING1 111-500 K390A/Q392A (Homo sapiens, UniProt P05155)	SPR	–	with: Ca2+	9.6
